Experimental data collected from several papers.
Compare with care: the assays were run in different laboratories. Values joined by “and” are separate records of one study, mostly repeats; a detail may differ. Numbers after ± are the reported error. In brackets after ≈: the same amount, converted by molar mass.

`c1cc2ccc3cccc4ccc(c1)c2c34` has a concentration of 51.2 ± 12.3 ng/g (male Wistar rats, cecum; oral, 4 mg/kg, 24 h).
With `O=c1[nH]c(=O)[nH]c(=O)[nH]1` the serum concentration was 54100 ng/mL and 6000 ng/mL and 25000 ng/mL and 173000 ng/mL and 30500 ng/mL and 11100 ng/mL (LC-MS/MS; non-pregnant female rat, serum; oral, 1000 mg/kg/day, 10 days).
Under thymus index, `O=C(O)CC[C@H](NC(=O)CNC(=O)[C@@H]1C[C@@H](O)CN1)C(=O)N[C@@H](Cc1ccccc1)C(=O)NCC(=O)O` is recorded as “no effect” (ICR mouse, tail bleeding; oral, 450 µmol/kg; reference: vehicle).
`CC(=O)N[C@H](CCCCNC(=O)C(C)F)C(=O)N[C@@H](CS)C(=O)N[C@@H](CS)C(=O)N[C@@H](CCC(=O)O)C(=O)N[C@@H](Cc1c[nH]cn1)C(=O)N[C@H](Cc1ccccc1)C(=O)N[C@@H](CCCNC(=N)N)C(=O)N[C@@H](Cc1c[nH]c2ccccc12)C(=O)N[C@@H](CS)C(=O)N[C@@H](CCCNC(=N)N)C(=O)N1CCC[C@H]1C(=O)N[C@H](C(N)=O)C(C)C` (stereo partly drawn) [fluorine-18 labelled] gave a tissue uptake of 0.55 ± 0.03 %ID/g (C57BL/6 mice, male, B16-F10 tumour, heart; intravenous, 1 h).
For `CC[C@H](C)[C@H](NC(=O)[C@H](C)NC(=O)[C@H](CCCCN)NC(=O)[C@H](CC(C)C)NC(=O)[C@H](C)NC(=O)[C@@H](NC(=O)[C@H](Cc1c[nH]cn1)NC(=O)[C@H](CC(C)C)NC(=O)[C@@H](NC(=O)[C@@H](NC(=O)[C@H](CCCCN)NC(=O)[C@H](CCCCN)NC(=O)[C@H](C)NC(=O)[C@H](CO)NC(=O)[C@H](CCCCN)NC(=O)[C@H](Cc1ccccc1)NC(=O)[C@@H](NC(=O)[C@H](CCCCN)NC(=O)[C@H](CC(C)C)NC(=O)[C@H](Cc1ccccc1)NC(=O)[C@H](CO)NC(=O)[C@H](CCCCN)NC(=O)[C@H](Cc1c[nH]c2ccccc12)NC(=O)[C@H](CCCCN)NC(C)=O)[C@@H](C)O)[C@@H](C)O)C(C)C)[C@@H](C)O)C(=O)N[C@@H](CO)C(=O)N[C@@H](CO)C(N)=O`, the retention time was 26.3 min (RP-HPLC; Zorbax 300 SB-C18 column; 65 °C).
For `CC[C@H](NC(=O)OC(C)(C)C)C(=O)N[C@H](C(=O)N[C@@H](CC(C)C)C(=O)N[C@@H](CCC(N)=O)C(=O)Nc1ccc2c(C)cc(=O)oc2c1)C(C)(C)C`, the solubility was 19.3 ± 2.6 µM (≈ 13.8 µg/mL) (shake-flask HPLC; 1 h, pH 7.2, 37 °C, 5% DMSO, 0.01% Triton X-100).
`CC1(C)S[C@@H]2[C@H](NC(=O)[C@H](C(=O)O)c3ccsc3)C(=O)N2[C@H]1C(=O)O` has a relative error of -1% (rat plasma; 8000 ng/mL, 24 h, room temperature, short-term stability; reference: nominal concentration).
Under “brain uptake clearance Kin”, `N[C@H](Cc1ccc(F)cc1)C(=O)O` is recorded as 8.9 mL/100 g/min (in situ brain perfusion; CF-1 mice, mdr1a(-/-); 1 µM, 60-180 s).
`O[C@H]1CCCN[C@@H]1CCCn1cnc2c(Cl)c(Cl)ccc21` gave an AUC(0-last) of 275 ng·h/mL (human, plasma; oral, 100 mg single dose, solution, geometric mean).
`Nc1cc(C(F)(F)F)c(-c2cc(N3CCOCC3)nc(N3CCOCC3)n2)cn1`: “unbound AUCinf increase” 52% (severe hepatic impairment, plasma; oral, 30 mg; reference: normal hepatic function).
`CN[C@@](C)(C[18F])C(=O)O` has a tissue uptake of 1.1 ± 0.3 %ID/g (SCID mouse SK-OV-3 xenograft, blood; 30 min, post injection).
The tissue uptake of `CSCC[C@@H]1NC(=O)[C@H](CC(=O)O)NC(=O)CNC(=O)[C@H](CCCNC(=N)N)NC(=O)[C@H](C)NC(=O)[C@H](CCC(=O)O)NC(=O)[C@H](CCCNC(=N)N)NC(=O)[C@@H]2CSSC[C@@H]3NC(=O)[C@H](CO)NC(=O)[C@H]([C@@H](C)O)NC(=O)[C@@H]4CCCN4C(=O)[C@H](C)NC(=O)[C@H](Cc4c[nH]c5ccccc45)NC(=O)[C@H](CC(=O)O)NC(=O)CNC(=O)[C@H](CCCNC(=N)N)NC(=O)CNC(=O)[C@H](CCC(N)=O)NC(=O)[C@@H]4CCCN4C(=O)[C@@H](NC(=O)CNC(=O)C(C)F)CSSC[C@H](NC(=O)CNC(=O)[C@H](C)NC(=O)[C@H](CC(C)C)NC(=O)[C@H](CSSC[C@@H](C(=O)NCC(N)=O)NC(=O)[C@H]([C@@H](C)O)NC(=O)[C@H](CCCNC(=N)N)NC(=O)[C@@H]4CCCN4C1=O)NC(=O)[C@H](CC(=O)O)NC(=O)[C@H](CO)NC(=O)[C@H](CC(=O)O)NC(=O)[C@H](CCC(N)=O)NC(=O)[C@H](CO)NC3=O)C(=O)N[C@@H](C(C)C)C(=O)N2` (stereo partly drawn) [fluorine-18 labelled] is reported as 1.81 ± 0.08 %ID/g (nude mice U-87 MG xenograft, stomach; intravenous, 0.5 h).
